Experimental data pooled from the literature.
Protocols differ between the studies behind these lines. “And” joins repeats or separate records; there may be more than shown. ± gives the spread as reported.

SMILES	test	system	setting	scale	AUC(0-inf)
Nc1nc(O)c2ncn(COC(CO)CO)c2n1	–	Sprague-Dawley rat male	oral, 10 mg/kg	–	0.55 ± 0.0807 µg·h/mL
CC[C@@H]([C@H](C)O)n1ncn(-c2ccc(N3CCN(c4ccc(OC[C@@H]5CO[C@@](Cn6cncn6)(c6ccc(F)cc6F)C5)cc4)CC3)cc2)c1=O	–	Sprague-Dawley rats, plasma	oral, 40 mg/kg, together with: zanubrutinib 16 mg/kg	–	59.1 ± 21.7 µg·h/mL
C=CC(=O)N1CCC(Oc2cc3c(Nc4ccc(Cl)c(Cl)c4F)ncnc3cc2OC)CC1	–	male Sprague-Dawley rats, plasma	oral, 2 mg/kg, together with: schisandrin A pretreatment 20 mg/kg daily 1 week	–	6.83 ± 0.895 µg·h/mL
OCC1=C[C@@H](O)[C@@H]2C=CO[C@@H](O[C@@H]3O[C@H](CO)[C@@H](O)[C@H](O)[C@H]3O)[C@H]12	–	rat, plasma	oral, 500 mg/kg Eu extract, dosed as Eu extract	–	0.329 ± 0.211 µg·h/mL
Cc1cccc(CNC(=O)c2cn(CCNC(=O)c3ccccc3S)c3cc4c(cc3c2=O)OC(F)(F)O4)n1	–	Sprague-Dawley rat, male, whole blood	intramuscular, 3 mg/kg of parent compound	–	2.74 µg·h/mL
C[C@H]1C[C@@H](N2C(=N)N[C@](C)(c3cccc(NC(=O)c4cccc(C#N)c4)c3Cl)CC2=O)CCO1	–	Han Wistar rat, male	oral, 1000 mg/kg, 7 days	–	1050 µg·h/mL
O=C1C[C@@H](c2ccc(O)cc2)Oc2cc(O)cc(O)c21	–	Sprague-Dawley rat, plasma	intravenous bolus, 1 mg/kg	–	25.4 ± 2.68 µg·h/mL
N#CC(Cc1ccc(O)cc1)c1ccc(O)cc1 (centres unmarked)	item: aglycone	rat, Long-Evans, female, serum	subcutaneous, 2 mg/kg single dose	–	2.5 ± 0.52 µM·h
CNC(=O)c1cccc(-c2ccc(O[C@H]3O[C@H](CO)[C@@H](O)[C@H](O)[C@@H]3O)c(C)c2)c1	–	male Sprague-Dawley rat, plasma	oral, 10 mg/kg, group mean	–	0.016 µg·h/mL
CSc1ccccc1C(=O)NCCn1cc(C(=O)NCc2cccc(C)n2)c(=O)c2cc3c(cc21)OC(F)(F)O3	–	Sprague-Dawley rat, male, plasma	intravenous, 5 mg/kg of parent compound	–	0.175 ± 0.0196 µg·h/mL
CCc1cc(C(=O)NC)c2nccc(N3CCc4c(cc(Cn5ccnc5)cc4-c4cn(C)nc4C(F)(F)F)C3=O)c2c1	–	Sprague-Dawley rats, male, plasma	oral, 50 mg/kg	–	55.7 µg·h/mL
Cc1ccc(S(=O)(=O)n2cc3c4c2C(=O)C(NCc2ccc(Cl)cc2)=CC4=NCC3)cc1	–	Sprague-Dawley rat, plasma	intravenous, 5 mg/kg, individual rat	–	1.94 µg·h/mL and 2 µg·h/mL
Cc1cccc(CNC(=O)c2cn(CCNC(=O)c3ccccc3Sc3c([N+](=O)[O-])ncn3C)c3cc4c(cc3c2=O)OC(F)(F)O4)n1	–	Sprague-Dawley rat, male, plasma	intramuscular, 3 mg/kg	–	0.184 ± 0.0573 µg·h/mL
CN(C)C(=O)c1cc2cnc(Nc3ccc(N4CCNCC4)cn3)nc2n1C1CCCC1	microdialysis	Sprague-Dawley rats, male, brain ECF	intraperitoneal, 100 mg/kg	–	1.16 µg·h/mL
C=CC(=O)N1CCC[C@@H](n2nc(-c3ccc(Oc4ccccc4)cc3)c3c(N)ncnc32)C1	–	rat (Wistar, male)	oral, 40 mg/kg	–	0.406 ± 0.0681 µg·h/mL
CNC(=O)c1cccc(-c2ccc([C@@H](O)[C@H]3O[C@H](CO)[C@@H](O)[C@H](O)[C@@H]3O)c(C)c2)c1	–	male Sprague-Dawley rat, plasma	intravenous, 3 mg/kg, group mean	–	1.44 µg·h/mL
O=C1c2ccncc2C(=O)c2c1[nH]c1ccccc21	–	Sprague-Dawley rat, male, plasma	intravenous, 1 mg/kg	–	0.844 ± 0.311 µM·h
COC(=O)C1=CO[C@@H](O[C@@H]2O[C@H](CO)[C@@H](O)[C@H](O)[C@H]2O)[C@@H]2C(CO)=CC[C@H]12	–	rat, plasma	oral, 500 mg/kg Eu extract, dosed as Eu extract	–	0.2382 ± 0.00127 µg·h/mL
Cc1nc(-c2cnc(NC(C)C)n(C)c2=O)ccc1Oc1ccnc(-c2cnn(C)c2)c1	–	Sprague-Dawley rat, male, plasma	oral, 10 mg/kg	–	278 µg·h/mL
C1=C/COCc2cc(ccc2OCCN2CCCC2)Nc2nccc(n2)-c2cccc(c2)COC/1	–	Sprague-Dawley rats, male, plasma	oral, dose not given, together with: isavuconazole	relative to: isavuconazole alone	2.6 fold increase
